Published values of several laboratories.
Every numbered part comes from another study and shows a few of its results, in no order. Positions count from the first letter of the parent shown.

Set 1
Target: CCND1, cyclin fold, Cln2 fusion (human)
Method: yeast growth competition, sequencing
Matrix: yeast
Notes: weak parent motif
Relative to: not given
Direction: higher = stronger binding
Parent: SLBP docking peptide (human); ARYKRKLLINDFG
For `A1G`, “normalised enrichment score” read 0.0981.
`K4Y`: “normalised enrichment score” -0.226.
For `N10W`, “normalised enrichment score” read 0.745.

Set 2
Target: Histone acetyltransferase KAT6A, winged helix 1, GST fusion (KAT6A, Homo sapiens, UniProt Q92794, residues 1-85)
Method: protein binding microarray
Molecule type: double-stranded DNA, one strand shown
Matrix: in vitro
Concentration: not given
Notes: 8-mer, flanks averaged, mean of 2 arrays, mostly near background
Relative to: not given
Direction: higher = stronger binding
Construct (chain): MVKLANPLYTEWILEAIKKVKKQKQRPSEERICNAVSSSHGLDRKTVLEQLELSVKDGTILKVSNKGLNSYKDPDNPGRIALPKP
The E-score of `GGCCGGGA` is reported as 0.326.
`GGGGTAAA` gave an E-score of -0.0236.
With `ACCGACTA` the E-score was 0.119.
With `CATATCAA` the E-score was -0.168.

Further values, each from its own experiment
The fold induction of `PhoQ, residues 284 288 289 292 302 303 NLCILV` is reported as 16.6 (PhoP, residues 12 14 15 18 19 SEGLL (Escherichia coli, UniProt P23836); Sort-seq, measured: YFP reporter; E. coli; PhoQ-PhoP variant library, added: 10 µM Mg2+; relative to: high Mg2+ state, higher = stronger signaling).
Under interaction screen, `PRDX2 (Homo sapiens, UniProt P32119)` is recorded as “cross-linked” (PRDX1 (Homo sapiens, UniProt Q06830); cross-linking MS; hits only).

A few entries again (set 2):
With `ACCGACTA` the E-score was 0.119.
